Assay results from different studies.
Compare with care: the assays were run in different laboratories. Numbers after ± are the reported error.

SMILES | assay | system | conditions | how to read | quantity | result
CCc1cc2ncc(CN3CCN(c4ccc(C(=O)NC)nc4)CC3)cc2[nH]c1=O | – | male rat, blood | oral, 50 mg/kg/day, 4 weeks | relative to: vehicle control | white blood cell count ratio | 0.62
COc1cc2nccc(Oc3ccc(NC(=O)c4cc5c(n(-c6ccccc6)c4=O)CCCC5=O)nc3)c2cc1OC | – | relapsed or refractory AML | oral, 6 mg once daily | – | grade ≥3 Thrombocytopenia patients | 33.3%
COc1cc2[nH]c(C)c(-c3ccc(S(=O)(=O)N(C)C)cc3)c(=O)c2cc1Cl | – | PAMPA | pH 7.4 | – | Papp | 119 ×10⁻⁶ cm/s
COc1cc(N)c(Cl)cc1C(=O)NC1CCN(CCCOc2ccc(F)cc2)CC1OC (centres unmarked) | – | male Hartley guinea pigs, anaesthetized | intravenous, 0.1 mg/kg group, baseline before infusion | – | mean blood pressure | 33 ± 0.2 mmHg
CCn1c(=O)c(-c2cc(NC(=O)Nc3ccccc3)c(F)cc2Br)cc2cnc(NC)cc21 | – | human plasma | 4000 ng/mL, 1 weeks, 4 °C, high QC | – | mid-term stability accuracy | 3.41%
Cc1cc(-c2nccc3c2ccn3CC(=O)Nc2ccc(-c3cnccn3)cn2)ccn1 | – | healthy human volunteers | oral, 40 mg single dose, single ascending dose | – | application site scab incidence | 0%
C#Cc1cccc(Nc2ncnc3cc(OCCOC)c(OCCOC)cc23)c1 | – | brain over plasma | 100 mg/kg, 2 h | relative to: unbound brain over unbound plasma | Kp,uu | 0.3
O=C(Cn1c(NCCO)nc2ccccc21)c1cccc([N+](=O)[O-])c1 | – | – | – | – | pKa | 6.32
Cc1ccc(Sc2ccccc2N2CCNCC2)c(C)c1 | item: postural dizziness | healthy adult men | oral, 5 mg daily, 12 days | – | participants with TEAE | 0%
CC[C@H](C)[C@H](NC(=O)CN)C(=O)N[C@@H](C)C(=O)N[C@@H](CC(=O)O)C(=O)N[C@@H](C)C(=O)N[C@H](C(=O)N[C@@H](CCCCN)C(=O)N[C@@H](C)C(=O)N[C@H](C(=O)N[C@@H](C)C(=O)N[C@@H](CCCCN)C(=O)N[C@@H](C)C(=O)N[C@@H](CC(C)C)C(=O)NCC(N)=O)[C@@H](C)CC)[C@@H](C)CC | circular dichroism at 222 nm | 10 mM SDS | 100 µM, pH 4.0 | – | mean residue ellipticity | -805 deg cm2/dmol
Cc1nc(C(=O)NCC(=O)O)c(O)c2ccc(Oc3ccccc3)cc12 | – | – | – | – | pKa (acidic) | 3.5
C=CC(=O)N(C)CCOc1c(N)ncnc1-c1cc(F)cc(NC(=O)c2ccc(C3CC3)cc2F)c1C | – | human | oral, 20 mg, day 7, median, with: ritonavir | – | AUC(0-last) per dose | 19.9 ng·h/mL/mg
CN(CCCN1CCN(C(=O)CN2CCN(CC(=O)[O-])CCN(CC(=O)[O-])CCN(CC(=O)[O-])CC2)CC1)c1ccc2nccc(C(=O)NCC(=O)N3CC(F)(F)C[C@H]3C#N)c2c1.[68Ga+3] | – | mice, HT-1080.hFAP and HT-1080 wild-type xenografts, blood | iv, 500 pmol, 4 h post injection | – | uptake | 0.1 %IA/g
N#Cc1ccc2c(c1)[C@H]1CCCN(C(=O)c3ccc4[nH]cnc4c3)[C@H]1C2 | – | human males | 160 mg, day 7 | – | SHBG level | 34.8 nmol/L
Cc1cc(-c2nnc(N)nc2-c2ccc(F)cc2)cc(Cl)n1 | item: Fatigue | human phase Ia/Ib mCRPC, immunotherapy-naive | oral, dose not given | – | patients with treatment-related adverse events | 29.2%
COc1ccc([C@@H](O)c2cc(-c3ncnc4cc(N5CCOCC5)ccc34)c(F)cc2Cl)nn1 | – | locally advanced rectal cancer patients | 100 mg, with: capecitabine and radiotherapy | – | constipation TEAE incidence | 0%
CC(C)(C(=O)N1CCOc2c(C#N)cncc2C1)C(F)F | item: skin abrasion | human | oral, 20 mg twice daily, 14 days, multiple ascending dose | – | subjects with adverse event | 0%
COc1cc(C(=O)N2CCC3(CC2)CC(=O)c2c(cnn2C(C)C)C3)cc(-c2ccc(C(=O)O)cc2)n1 | item: HDL cholesterol | human, fasting serum | 30 mg every 12 h, day 13, adjusted geometric mean | relative to: baseline and placebo | placebo-adjusted change from baseline | -13.7%
CC(=O)Oc1ccccc1C(=O)O | – | male Hartley guinea pigs, anaesthetized | intravenous, 3 mg/kg over 10 min, after infusion | – | mean blood pressure | 36 ± 0.1 mmHg

SMILES | assay | system | conditions | how to read | quantity | result
CC(C)(C)c1ccc(O)c(CN(Cc2cc(C(C)(C)C)ccc2O)C2CCC(NC(N)=O)CC2)c1 (centres unmarked) | – | mouse brain | 5 ng/g, time not given, freeze-thaw, 3 cycles, -20 °C | – | recovery | 99.8 ± 1.18%
O=C(N[C@H](Cc1c[nH]c2ccccc12)C(=O)Nc1ccncc1)c1ccc(-c2cc(C(F)(F)F)ccc2F)cc1F | – | Swiss Webster mouse, female, intestine | oral, 50 mg/kg, 2 h, 20% HPβCD vehicle | – | concentration | 90 nM
C[C@H](CS)C(=O)N1CCC[C@H]1C(=O)O | – | male Hartley guinea pigs, anaesthetized | intravenous, 3 mg/kg group, baseline before infusion | – | mean blood pressure | 37 ± 0.1 mmHg
COc1ccc(C[C@@H](C)[C@@H](C)Cc2ccc(OC)c(OC)c2)cc1OC | – | beagle dog male, plasma | oral, 300 mg/kg/day, day 28 | – | Cmax | 1850 ± 444 ng/mL
Cc1cc(C)c(CNC(=O)c2cc(Cl)c3c(c2C)O[C@@](C)([C@H]2CC[C@H](N(C)C)CC2)O3)c(=O)[nH]1 | CTCAE v4.0, item: muscle spasms | human relapsed/refractory NHL | oral, 200 mg once daily, onset after cycle 1 day 1, overall treatment period | – | patients with TEAE | 16.7%
C[C@@H]1CCO[C@H]2Cn3cc(C(=O)NCc4ccc(F)cc4F)c(=O)c(O)c3C(=O)N12 | – | human paediatric patients, weight sample C to under sample D kg, plasma | oral, 16 mg granules, 24 h, steady state, geometric mean, population PK post-hoc, N 2 | – | trough concentration (C24) | 601 ng/mL
CN1C(=O)[C@@H](NC(=O)c2nnc(Cc3ccccc3)[nH]2)COc2cccnc21 | phase I multiple ascending dose | human, male and female | oral, 100 mg, 14 days | – | participants with any AE of special interest | 0%
CC1(C)S[C@@H]2[C@H](NC(=O)[C@H](N)c3ccc(O)cc3)C(=O)N2[C@H]1C(=O)O | – | male Hartley guinea pigs, anaesthetized | intravenous, 20 mg/kg over 10 min, after infusion | – | mean blood pressure | 36 ± 0.1 mmHg
CC(C)NCCCC[C@@H]1NC(=O)[C@H](Cc2ccc(O)cc2)NC(=O)[C@H](Cc2ccccc2)NC(=O)CC[C@H](C(=O)N[C@@H](CCCCNC(C)C)C(=O)N[C@@H](CCCCNC(=O)[C@H](CCC(=O)O)NC(=O)[C@H](CCC(=O)O)NC(=O)[C@H](CCC(=O)O)NC(=O)CN2CCN(CC(=O)O)CCN(CC(=O)O)CCN(CC(=O)O)CC2)C(N)=O)NC(=O)CNC(=O)[C@H](Cc2ccc3ccccc3c2)NC(=O)[C@@H](CCCNC(=N)N)NC1=O [gallium-68 labelled] | – | mouse with Daudi xenograft, intestine | intravenous, 1 h | – | tissue uptake | 0.2 %ID/g
CCCOc1ccc([C@H]2CNC(=O)N2c2ccc3[nH]cnc3c2)cc1 | – | human volunteers fed, plasma | oral tablet, 200 mg single dose, crossover, geometric mean | – | effective half-life | 2.2 h
O=C(Nc1nc2cccc(-c3ccc(CN4CCS(=O)(=O)CC4)cc3)n2n1)C1CC1 | item: abdominal discomfort | rheumatoid arthritis patients | oral, 150 mg once daily, 4 weeks, any relatedness | – | patients with adverse event | 0%
O=C(O)CCC(=O)O.[2H]C([2H])([2H])Oc1cc(C)c2[nH]ccc2c1CN1CC[C@@H](C2CC2)C[C@H]1c1ccc(C(=O)O)cc1 | – | human, plasma | 125 mg twice daily, day 10, multiple ascending dose | – | CLss/F | 2.86 L/h
COc1nc(-c2cc(C)c(N[C@@H](C)c3cc(F)cc(F)c3)nn2)ccc1-n1cnc(C)c1 | – | cynomolgus monkey, male, plasma | intravenous, 1 mg/kg | – | Vss | 0.856 L/kg
NC[C@@]1(CC(=O)O)[C@@H]2CC[C@H]3C[C@@H]2[C@@H]1C3 | – | human, mild renal impairment, plasma | dose not given | relative to: normal renal function | unbound AUC(0-t) increase | 14.7%
CNC(=O)c1ccc(-c2cnc3ncc(Cc4ccc5ncccc5c4)n3n2)cc1F | – | healthy human subjects | oral, 200 mg, Nausea, grade 3, all causality, with: itraconazole 200 mg/day | – | subjects with adverse event | 0%
COc1ncc(-c2nc3c(n2C(C)C)[C@H](c2ccc(Cl)cc2)N(c2cc(Cl)cn(C)c2=O)C3=O)c(OC)n1 | – | human patients, plasma | oral, 25 mg, cycle 1 day 1, low-dose | – | median half-life | 14.7 h
FC(F)(F)c1ccc(CNc2ccc(Cc3c[nH]c4ncc(Cl)cc34)cn2)cn1 | item: peripheral oedema | human, advanced solid tumours, non-TGCT cohort | oral, 1000 mg/day, grade 3 or higher | – | treatment-related adverse events | 0%
Oc1ccc(Cl)c2cccnc12 | – | – | – | – | pKa (acidic) | 9.1
[18F]c1ccc(-c2ccc3c(c2)[nH]c2ccncc23)cn1 | ex vivo biodistribution | APP/PS1 mouse, AD model, bone | intravenous, 30 min | – | SUV | 0.628 ± 0.146

SMILES | assay | system | conditions | how to read | quantity | result
COc1ccc2[nH]c([S+]([O-])Cc3ncc(C)c(OC)c3C)nc2c1 (centres unmarked) | – | healthy Chinese volunteers, plasma | oral, 20 mg, fed, CYP2C19 rapid metabolizers | – | AUC(0-t) | 390 ± 250 ng·h/mL
O=C1CCc2ccc(OCCCCN3CCN(c4cccc(Cl)c4Cl)CC3)cc2N1 | item: Hypertension | genotyped patients, CYP2D6 ultrarapid metabolizers | dose not given, long-acting oral or depot | – | adverse event incidence | 22%
CNC(=O)c1ccc(-c2cnc3ncc(Cc4ccc5ncccc5c4)n3n2)cc1F | – | human severe hepatic impairment NCI | oral, 200 mg single dose, geometric mean | – | AUC(0-inf) | 5310 ng·h/mL
Cc1ccc(C(=O)Nc2ccnc(S(N)(=O)=O)c2)c(N2CCCC(F)(F)CC2)n1 | – | rhesus monkey, plasma | oral, 10 mg/kg | – | unbound plasma concentration | 195 to 394 nM
CNC(=O)c1ccc(-c2cnc3ncc(Cc4ccc5ncccc5c4)n3n2)cc1F | item: Cough, all grades | cancer patients | oral, dose not given, dose escalation, any causality | – | patients with adverse event | 18%
Cn1cc(Nc2nccc(-c3ccc4c(c3)CN(C3COC3)CC[C@H]4NC(=O)c3cn(C(C)(C)C)nn3)n2)cn1 | – | human, whole blood | 300 mg twice daily, day 7 | relative to: pre-dose baseline | CD8+ T cell count change | -1.95%
CNCc1ccc(-c2[nH]c3cc(F)cc4c3c2CCNC4=O)cc1 | – | human patients | oral, 600 mg twice daily, grade 3 | – | incidence of pulmonary embolism | 0%
CCOc1c([C@H](C)n2nc(C)c3c(N)ncnc32)cc(Cl)c(F)c1[C@@H]1CNC(=O)C1 | ECG | previously treated B-cell malignancy patients | oral, 45 mg once daily, baseline below thresholds | – | patients with HR above 100 bpm | 0%
C=C(F)C(=O)N1CCN(c2nc(OC[C@@H]3CCCN3C)nc3c2CCN(c2cccc4cccc(Cl)c24)C3)C[C@@H]1CC#N | – | healthy volunteers, plasma | oral, 400 mg twice daily | – | AUC(0-tau) | 12700 ng·h/mL
Cc1cc(Nc2cc3ncccc3c(N[C@@H]3C[C@H]4CC[C@@H](C3)N4CCC#N)n2)n[nH]1 | – | healthy human subjects | oral, 30 mg, 14 days, multiple ascending dose | – | pruritus incidence | 0%
CC(F)(F)c1cc(F)ccc1-c1sc2cc(O)ccc2c1Oc1ccc(/C=C/C(=O)O)cc1 | – | human patients, serum | oral, 400 mg once daily, cycle 1 day 28, fasted, mean | – | AUC(0-last) | 18400 ng·h/mL
Cc1ccc([C@@H]2O[C@H](CO)[C@@H](O)[C@H](O)[C@H]2O)cc1Cc1ccc(-c2ccc(F)cc2)s1 | – | Japanese type 2 diabetes patients | 25 mg, day 4, 24 h urine collection | relative to: baseline | urinary sodium excretion change | 14.3 mEq
COc1ccc(Br)c(/C=N/NC(=O)COc2ccc(-c3ccccc3)cc2)c1 | – | sheep erythrocytes | 1 h, pH 7.5 | – | maximum haemolysis | 4.1%
C[C@H]1Oc2cc(cnc2N)-c2c(nn(C)c2C#N)CN(C)C(=O)c2ccc(F)cc21 | – | human patients, plasma | oral, cycle 2 day 1, mean, with: avelumab | – | Tlast | 19 h
Cc1nc(-c2ccc(OCC(C)C)c(C#N)c2)sc1C(=O)O | – | human, plasma | oral, 20 mg, with: verinurad 5 mg | relative to: test over reference | geometric mean ratio Cmax | 122
CCN1/C(=C/C(C)=O)Sc2ccc(F)cc21 | – | cynomolgus monkey | oral, 10 mg/kg, 24 h post-dose | – | PR interval | 90 ± 5 ms
COc1cc2c3c(n(CCCN4CCOCC4)c(=O)c2cc1OC)-c1cc2c(cc1C3=O)OCO2 | – | beagle dog, male, plasma | intravenous infusion, 50 mg/m^2, 1 h infusion, vehicle 2 | – | Cmax | 280 ± 24 ng/mL
Cc1c(-c2ccc(N3CCc4cccc(C(=O)Nc5nc6ccccc6s5)c4C3)nc2C(=O)O)cnn1CC12CC3(C)CC(C)(C1)CC(OCCNCC[C@H](O)CO)(C3)C2 | – | beagle dog, male, anaesthetised | intravenous infusion, 0.3 mg/kg/min, 75 min | relative to: vehicle | QTcV interval change | 14 ms
